Experimental data gathered from unrelated publications.
Each line is one published result; not all experiments were run side by side. ± gives the spread as reported.
VKORC1: Vitamin K epoxide reductase complex subunit 1 (VKORC1, Homo sapiens, UniProt Q9BQB6)
UniProt Q9BQB6, sequence (whole entry, looked up): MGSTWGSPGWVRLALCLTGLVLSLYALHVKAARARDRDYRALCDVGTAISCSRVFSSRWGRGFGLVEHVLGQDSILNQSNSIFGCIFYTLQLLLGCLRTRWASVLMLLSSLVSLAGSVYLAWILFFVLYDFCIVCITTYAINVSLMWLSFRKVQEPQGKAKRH
DDR2: Discoidin domain-containing receptor 2 (DDR2, Homo sapiens, UniProt Q16832)
UniProt Q16832, sequence (whole entry, looked up): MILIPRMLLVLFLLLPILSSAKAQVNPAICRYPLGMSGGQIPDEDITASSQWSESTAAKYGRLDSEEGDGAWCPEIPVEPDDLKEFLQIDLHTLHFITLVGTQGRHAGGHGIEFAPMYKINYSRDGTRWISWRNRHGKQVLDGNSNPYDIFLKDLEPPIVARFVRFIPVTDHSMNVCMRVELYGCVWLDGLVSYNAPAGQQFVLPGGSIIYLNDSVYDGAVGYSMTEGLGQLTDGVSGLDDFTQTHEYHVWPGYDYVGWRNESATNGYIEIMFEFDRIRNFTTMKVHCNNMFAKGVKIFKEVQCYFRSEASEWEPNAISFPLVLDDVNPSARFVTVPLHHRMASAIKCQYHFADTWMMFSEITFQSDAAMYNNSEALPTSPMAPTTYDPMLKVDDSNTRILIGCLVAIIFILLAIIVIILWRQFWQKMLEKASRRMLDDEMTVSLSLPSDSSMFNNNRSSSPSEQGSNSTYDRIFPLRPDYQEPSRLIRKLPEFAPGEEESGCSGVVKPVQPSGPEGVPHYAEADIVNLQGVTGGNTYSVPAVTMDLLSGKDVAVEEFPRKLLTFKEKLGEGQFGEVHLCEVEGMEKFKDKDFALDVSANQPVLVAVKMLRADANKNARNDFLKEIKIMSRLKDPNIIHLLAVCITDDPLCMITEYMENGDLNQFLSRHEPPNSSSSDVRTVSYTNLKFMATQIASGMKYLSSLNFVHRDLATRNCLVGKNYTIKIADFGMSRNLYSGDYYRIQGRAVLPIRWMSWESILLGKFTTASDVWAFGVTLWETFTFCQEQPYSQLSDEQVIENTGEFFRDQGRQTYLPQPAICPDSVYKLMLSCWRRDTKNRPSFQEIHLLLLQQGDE
CDK4: Cyclin-dependent kinase 4 (CDK4, Homo sapiens, UniProt P11802)
UniProt P11802, sequence (whole entry, looked up): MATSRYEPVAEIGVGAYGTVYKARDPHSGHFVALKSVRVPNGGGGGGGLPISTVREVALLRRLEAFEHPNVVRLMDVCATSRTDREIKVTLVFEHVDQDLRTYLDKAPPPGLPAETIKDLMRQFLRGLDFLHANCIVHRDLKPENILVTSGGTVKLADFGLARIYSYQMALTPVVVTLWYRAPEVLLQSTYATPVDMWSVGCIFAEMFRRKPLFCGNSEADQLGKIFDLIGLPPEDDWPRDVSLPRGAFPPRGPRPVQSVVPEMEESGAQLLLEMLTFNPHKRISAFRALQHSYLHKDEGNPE
MAOA: Amine oxidase [flavin-containing] A (MAOA, Homo sapiens, UniProt P21397)
UniProt P21397, sequence (whole entry, looked up): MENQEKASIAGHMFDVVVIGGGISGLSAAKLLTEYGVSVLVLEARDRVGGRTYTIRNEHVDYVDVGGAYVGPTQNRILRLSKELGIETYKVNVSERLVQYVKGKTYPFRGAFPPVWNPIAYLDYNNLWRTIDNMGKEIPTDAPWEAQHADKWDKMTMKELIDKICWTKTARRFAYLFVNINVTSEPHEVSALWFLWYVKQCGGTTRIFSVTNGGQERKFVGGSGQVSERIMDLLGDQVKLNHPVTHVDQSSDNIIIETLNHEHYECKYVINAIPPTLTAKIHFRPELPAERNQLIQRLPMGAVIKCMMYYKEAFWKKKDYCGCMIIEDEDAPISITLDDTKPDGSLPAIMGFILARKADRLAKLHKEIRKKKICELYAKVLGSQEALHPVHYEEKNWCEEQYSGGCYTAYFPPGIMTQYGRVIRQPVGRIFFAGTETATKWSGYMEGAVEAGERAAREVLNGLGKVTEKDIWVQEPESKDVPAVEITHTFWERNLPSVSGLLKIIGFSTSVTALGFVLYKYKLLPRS
Gria2: Glutamate receptor 2 (Gria2, Rattus norvegicus, UniProt P19491)
UniProt P19491, sequence (whole entry, looked up): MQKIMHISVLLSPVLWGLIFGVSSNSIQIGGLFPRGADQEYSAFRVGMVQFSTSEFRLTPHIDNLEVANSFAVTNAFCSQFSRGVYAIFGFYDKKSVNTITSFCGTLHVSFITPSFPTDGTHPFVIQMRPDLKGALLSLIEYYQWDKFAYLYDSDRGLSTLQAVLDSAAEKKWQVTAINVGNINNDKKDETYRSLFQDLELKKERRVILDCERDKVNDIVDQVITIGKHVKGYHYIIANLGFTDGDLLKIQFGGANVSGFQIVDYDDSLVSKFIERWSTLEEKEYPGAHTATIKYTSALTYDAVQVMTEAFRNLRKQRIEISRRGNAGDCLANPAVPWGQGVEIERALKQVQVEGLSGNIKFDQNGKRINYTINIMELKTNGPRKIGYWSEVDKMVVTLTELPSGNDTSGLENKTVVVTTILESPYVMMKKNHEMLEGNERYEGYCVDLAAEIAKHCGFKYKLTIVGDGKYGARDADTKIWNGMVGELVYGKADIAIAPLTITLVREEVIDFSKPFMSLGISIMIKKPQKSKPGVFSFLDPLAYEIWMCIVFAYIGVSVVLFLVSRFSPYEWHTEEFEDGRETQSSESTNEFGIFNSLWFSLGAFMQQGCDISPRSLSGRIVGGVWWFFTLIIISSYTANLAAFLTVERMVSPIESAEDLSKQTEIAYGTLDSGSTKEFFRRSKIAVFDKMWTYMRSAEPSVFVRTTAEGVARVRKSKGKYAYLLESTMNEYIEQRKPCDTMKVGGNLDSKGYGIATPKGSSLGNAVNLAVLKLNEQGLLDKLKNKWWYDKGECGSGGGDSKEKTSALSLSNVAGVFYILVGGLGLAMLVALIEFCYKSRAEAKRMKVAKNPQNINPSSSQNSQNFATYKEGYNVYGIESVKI
SIRT5: NAD-dependent protein deacylase sirtuin-5, mitochondrial (SIRT5, Homo sapiens, UniProt Q9NXA8)
UniProt Q9NXA8, sequence (whole entry, looked up): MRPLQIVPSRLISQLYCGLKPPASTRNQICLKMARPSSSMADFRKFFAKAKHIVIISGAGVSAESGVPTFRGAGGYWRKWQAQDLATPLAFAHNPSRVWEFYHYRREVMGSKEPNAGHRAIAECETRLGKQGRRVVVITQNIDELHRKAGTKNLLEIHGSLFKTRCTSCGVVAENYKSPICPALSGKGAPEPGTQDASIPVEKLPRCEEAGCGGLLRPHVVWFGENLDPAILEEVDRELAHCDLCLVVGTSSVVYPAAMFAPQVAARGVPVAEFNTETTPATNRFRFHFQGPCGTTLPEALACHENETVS
UniProt P50613, sequence (whole entry, looked up): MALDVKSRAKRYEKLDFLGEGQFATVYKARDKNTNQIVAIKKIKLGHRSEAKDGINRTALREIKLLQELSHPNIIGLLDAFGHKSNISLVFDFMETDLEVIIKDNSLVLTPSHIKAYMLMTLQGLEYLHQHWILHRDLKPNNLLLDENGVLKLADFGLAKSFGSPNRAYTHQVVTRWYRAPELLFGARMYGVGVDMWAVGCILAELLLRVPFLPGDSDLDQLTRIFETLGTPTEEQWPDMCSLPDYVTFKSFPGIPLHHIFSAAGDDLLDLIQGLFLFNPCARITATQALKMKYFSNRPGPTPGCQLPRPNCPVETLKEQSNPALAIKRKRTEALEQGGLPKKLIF
UniProt P22455, sequence (whole entry, looked up): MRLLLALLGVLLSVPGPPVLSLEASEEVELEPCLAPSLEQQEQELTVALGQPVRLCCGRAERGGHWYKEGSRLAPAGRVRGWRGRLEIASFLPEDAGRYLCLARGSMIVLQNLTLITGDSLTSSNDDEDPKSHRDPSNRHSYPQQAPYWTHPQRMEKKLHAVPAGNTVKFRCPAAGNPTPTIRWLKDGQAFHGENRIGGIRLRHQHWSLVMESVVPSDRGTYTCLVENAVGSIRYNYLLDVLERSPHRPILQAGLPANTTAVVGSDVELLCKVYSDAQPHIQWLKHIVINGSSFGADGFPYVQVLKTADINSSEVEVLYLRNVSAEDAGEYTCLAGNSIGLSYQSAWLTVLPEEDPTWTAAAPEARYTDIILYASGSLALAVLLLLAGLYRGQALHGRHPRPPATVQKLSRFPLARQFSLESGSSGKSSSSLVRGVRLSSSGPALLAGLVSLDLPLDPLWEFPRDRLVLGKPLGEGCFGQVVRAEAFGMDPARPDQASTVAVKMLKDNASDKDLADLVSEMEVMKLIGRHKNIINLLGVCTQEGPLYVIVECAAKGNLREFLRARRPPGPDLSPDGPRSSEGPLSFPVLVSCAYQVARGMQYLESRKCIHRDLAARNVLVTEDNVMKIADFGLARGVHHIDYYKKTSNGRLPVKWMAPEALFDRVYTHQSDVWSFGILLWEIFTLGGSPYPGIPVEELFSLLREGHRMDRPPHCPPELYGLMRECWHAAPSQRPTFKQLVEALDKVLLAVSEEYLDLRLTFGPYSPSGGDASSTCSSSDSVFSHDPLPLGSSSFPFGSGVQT
UniProt Q8IW41, sequence (whole entry, looked up): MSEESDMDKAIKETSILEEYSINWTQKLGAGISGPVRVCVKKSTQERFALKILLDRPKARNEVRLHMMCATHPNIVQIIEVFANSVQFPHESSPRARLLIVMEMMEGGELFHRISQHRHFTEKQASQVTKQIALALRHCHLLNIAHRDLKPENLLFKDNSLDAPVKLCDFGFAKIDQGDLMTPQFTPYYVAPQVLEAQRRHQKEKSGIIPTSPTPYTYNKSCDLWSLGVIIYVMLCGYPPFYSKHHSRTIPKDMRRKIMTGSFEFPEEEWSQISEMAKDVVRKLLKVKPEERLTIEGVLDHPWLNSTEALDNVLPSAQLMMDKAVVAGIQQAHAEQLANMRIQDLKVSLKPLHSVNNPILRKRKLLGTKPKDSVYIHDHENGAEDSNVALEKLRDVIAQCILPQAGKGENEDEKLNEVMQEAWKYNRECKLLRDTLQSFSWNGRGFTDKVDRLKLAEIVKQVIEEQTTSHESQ
UniProt Q9Y6W8, sequence (whole entry, looked up): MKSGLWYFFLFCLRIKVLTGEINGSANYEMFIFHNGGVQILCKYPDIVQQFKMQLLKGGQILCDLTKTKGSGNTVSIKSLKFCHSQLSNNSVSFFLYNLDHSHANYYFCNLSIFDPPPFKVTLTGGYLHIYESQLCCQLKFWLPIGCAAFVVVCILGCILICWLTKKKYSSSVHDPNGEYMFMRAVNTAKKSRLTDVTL

| SMILES | target | assay | system | setting | IC50 |
| --- | --- | --- | --- | --- | --- |
| Cn1c(C(=O)Nc2nc(-c3ccccc3F)cs2)cc(=O)n(C)c1=O | VKORC1 | carboxylation, inhibitor, ELISA | HEK293 stably expressing | 24 h, added: vitamin K epoxide 5 µM | > 100000 nM |
| Cc1ccc(C(=O)Nc2ccnc(S(N)(=O)=O)c2)c(N2CCCC(F)(F)CC2)n1 | SCN9A (Homo sapiens, UniProt Q15858) | Nav1.7 sodium current, inhibitor, automated patch clamp |  |  | > 33800 nM |
| Cc1cc(C)c(S(=O)(=O)N(CC(=O)O)c2ccc(Nc3ccnc(N4CCCC4)n3)cc2)c(C)c1 | CDK7 (Homo sapiens, UniProt P50613) | enzyme activity, inhibitor |  |  | > 100000 nM |
| O=C(CN1CN(c2ccccc2)C2(CCN(C(=O)c3ccc4[nH]ncc4c3)CC2)C1=O)Nc1cccnc1 | DDR2 | ligand displacement |  |  | 41500 nM |
| CCN(CC)CC(=O)Nc1cccc(-n2cc(-c3ccc4ccc(-c5cn(-c6cccc(NC(=O)CN(CC)CC)c6)nn5)cc4c3)nn2)c1 | MAPKAPK5 (Homo sapiens, UniProt Q8IW41) | enzyme activity, inhibitor |  |  | > 10000 nM |
| Nc1ncnc2c1ncn2[C@@H]1C(F)=C(CO)[C@@H](O)[C@H]1O | AHCY (Homo sapiens, UniProt P23526) | enzyme activity, inhibitor |  |  | 150 nM |
| CN1CCc2cc(Br)c(O)cc2C(c2ccc(NC(=O)CCOCCOCCN=[N+]=[N-])cc2)C1 (stereo not shown) | DRD1 (Homo sapiens, UniProt P21728) | cell-based |  |  | 93.3 nM |
| Nc1n[nH]c2ccc(C(=O)N3CCC4(CC3)C(=O)N(CC(=O)NCC(F)(F)F)CN4c3ccccc3)cc12 | DDR2 | ligand displacement |  |  | 1670 nM |
| C#CCNc1c2c([nH]c(=O)c1C(=O)OCC)CCC2 | Gag-Pol polyprotein, reverse transcriptase (gag-pol, Human immunodeficiency virus 1, UniProt P03366) | enzyme activity, inhibitor |  |  | > 100000 nM |
| CCCCCCCC(=O)Nc1ccc(Nc2ncc(F)c(-c3cc(F)c4nc(C)n(C(C)C)c4c3)n2)cc1 | CDK4 |  |  |  | 14 nM |
| C[C@H](Cn1nnc2ccccc21)NC(=O)c1cnn2cccnc12 | VKORC1 | carboxylation, inhibitor, ELISA | HEK293 stably expressing | 24 h, added: vitamin K epoxide 5 µM | > 100000 nM |
| Cc1nc2c(F)cc(-c3nc(Nc4ccc(C(=O)NCCCCCCC(=O)NO)cc4)ncc3F)cc2n1C(C)C | CDK4 |  |  |  | 1.6 nM |
| O=C1CCC(N2C(=O)c3ccc(N4CC(C(=O)N5CC(CN6CCC(CNC(=O)c7cccc(-c8noc(C(F)(F)F)n8)c7)(c7nc(-c8ccccc8)cs7)CC6)C5)C4)cc3C2=O)C(=O)N1 (stereo not shown) | HDAC4 (Homo sapiens, UniProt P56524) |  |  |  | 1290 nM |
| Fc1cc2nc(NCCCNCc3cc(Cl)cc(Cl)c3)[nH]c2cc1F | MARS2 (Homo sapiens, UniProt Q96GW9) | enzyme activity, inhibitor |  |  | 7040 nM |
| CC(C)c1ccc(/C=C/C(=O)c2ccc(Br)s2)cc1 | MAOA | enzyme activity, inhibitor |  |  | 310 nM |
| CC(=O)N1CCC2(CC1)C(=O)N(CC(=O)Nc1ccccc1)CN2c1ccccc1 | DDR2 | ligand displacement |  |  | > 167000 nM |

| SMILES | target | assay | system | setting | IC50 |
| --- | --- | --- | --- | --- | --- |
| CCCCCCCCCCCCCCN(O)C(=O)CCCCC[C@@H]1NC(=O)[C@H]([C@@H](C)CC)NC(=O)[C@H](Cc2ccccc2C(F)(F)F)NC(=O)CCSCc2cccc(n2)CSCCCNC1=O | HDAC11 (Homo sapiens, UniProt Q96DB2) | enzyme activity, inhibitor, fluorescence |  |  | 90 nM |
| O=C(O)Cc1cc2c(cc1C(=O)c1ccc(Cl)cc1Cl)OCO2 | Gria2 | glutamate-evoked current, inhibitor, whole-cell patch clamp | HEK293T, homomeric receptor |  | 3720 nM |
| COC(=O)CCCNC(=O)c1ccc(Nc2ncc(F)c(-c3cc(F)c4nc(C)n(C(C)C)c4c3)n2)cc1 | CDK4 |  |  |  | 12 nM |
| Cc1cc(NC2CCN(C)CC2)ccc1-c1cc2c(N3CCC[C@H](C(=O)NCc4ccc(OC(F)(F)F)cc4)C3)ncnc2[nH]1 | DYRK1A (Homo sapiens, UniProt Q13627) | enzyme activity, inhibitor, mobility shift |  |  | > 8000 nM |
| COCCNC(=O)Cn1nc2c3ccccc3nc(C)n2c1=O | VKORC1 | carboxylation, inhibitor, ELISA | HEK293 stably expressing | 24 h, added: vitamin K epoxide 5 µM | > 100000 nM |
| CC(C)C[C@@H]1NC(=O)[C@H](C(C)C)NC(=O)[C@H](Cc2c[nH]c3ccccc23)NC(=O)[C@@H]2CSSC[C@H](NC(=O)[C@H](Cc3ccc(O)cc3)NC(=O)[C@H](C(C)C)NC(=O)[C@H](CCCNC(=N)N)NC(=O)CNC(=O)[C@H]3CCCN3C1=O)C(=O)N[C@@H](CCC(N)=O)C(=O)N1CCC[C@H]1C(=O)NCC(=O)N[C@@H](Cc1c[nH]c3ccccc13)C(=O)N2 | Inducible T-cell costimulator, with ICOS ligand (Homo sapiens, UniProt Q9Y6W8) | ICOS/ICOS-L binding, inhibitor, competitive ELISA |  |  | 17500 ± 1260 nM |
| CC[C@H]1CN(C(c2cccc(C(F)(F)F)c2)c2nc(C(F)(F)F)nn2C)[C@H](CC)CN1c1nc(=O)n(C)c2ccc(C#N)nc12 (stereo partly shown) | DGKA (Homo sapiens, UniProt P23743) | lipid kinase activity, inhibitor, ADP-Glo |  |  | 87 nM |
| O=C1CSC(c2cccc(Br)c2)N1c1cc(Cl)ccc1O (stereo not shown) | ACTR3/Actin-related protein 2 (Homo sapiens, UniProt P61158+P61160) | actin polymerization, pyrenyl-actin |  |  | 11000 nM |
| Cc1cc(C(=O)NCC(F)(F)c2ccc(Cl)cc2Cl)c(Oc2cccc(C3CC3)c2)nn1 | serine palmitoyltransferase (Botrytis cinerea, UniProt A0A384JAG3+A0A384JQT2) |  |  |  | 2 nM |
| N=C(N)NCCC[C@H](NC(=O)[C@H](CCCCNC(=S)NCCC(=O)O)NS(=O)(=O)c1cccc(F)c1)C(=O)NC1CCC1 | SIRT5 | inhibitor, fluorogenic |  | pre-incubation 16 h, added: NAD+ 500 µM | 86 ± 4 nM |
| O=C(NC1CCC1)[C@H](Cc1c[nH]c2ccccc12)NC(=O)[C@H](CCCCNC(=S)NCCc1noc(=O)[nH]1)NS(=O)(=O)c1cccc(F)c1 | SIRT5 | enzyme activity, inhibitor |  |  | 108 ± 4 nM |
| Cc1nc2c(F)cc(-c3nc(Nc4ccc(CNC(=O)CCCCC(=O)NO)cc4)ncc3F)cc2n1C(C)C | CDK4 |  |  |  | 0.87 nM |
| COC(=O)Cc1cc2c(cc1C(=O)c1ccccc1Br)OCO2 | Gria2 | glutamate-evoked current, inhibitor, whole-cell patch clamp | HEK293T, homomeric receptor |  | 5250 nM |
| Cc1nn(-c2cccc(N)c2)c(=O)c2cnc(Nc3ccc(N4CCNCC4)cc3)nc12 | FGFR4 (Homo sapiens, UniProt P22455) | enzyme activity, inhibitor |  |  | > 10000 nM |
| O=C1c2cc(O)cc(O)c2C(=O)c2c(O)cc(CO)cc21 | MAOA | enzyme activity, inhibitor |  |  | 40600 nM |

A few entries again:
| SMILES | target | assay | system | setting | IC50 |
| --- | --- | --- | --- | --- | --- |
| O=C1CSC(c2cccc(Br)c2)N1c1cc(Cl)ccc1O (stereo not shown) | ACTR3/Actin-related protein 2 (Homo sapiens, UniProt P61158+P61160) | actin polymerization, pyrenyl-actin |  |  | 11000 nM |
| C#CCNc1c2c([nH]c(=O)c1C(=O)OCC)CCC2 | Gag-Pol polyprotein, reverse transcriptase (gag-pol, Human immunodeficiency virus 1, UniProt P03366) | enzyme activity, inhibitor |  |  | > 100000 nM |
